Published values gathered from unrelated publications.
Protocols differ between the studies behind these lines. ± gives the spread as reported.
Sctr: Sctr (Rattus norvegicus, UniProt P23811)
UniProt P23811, sequence (whole entry, looked up): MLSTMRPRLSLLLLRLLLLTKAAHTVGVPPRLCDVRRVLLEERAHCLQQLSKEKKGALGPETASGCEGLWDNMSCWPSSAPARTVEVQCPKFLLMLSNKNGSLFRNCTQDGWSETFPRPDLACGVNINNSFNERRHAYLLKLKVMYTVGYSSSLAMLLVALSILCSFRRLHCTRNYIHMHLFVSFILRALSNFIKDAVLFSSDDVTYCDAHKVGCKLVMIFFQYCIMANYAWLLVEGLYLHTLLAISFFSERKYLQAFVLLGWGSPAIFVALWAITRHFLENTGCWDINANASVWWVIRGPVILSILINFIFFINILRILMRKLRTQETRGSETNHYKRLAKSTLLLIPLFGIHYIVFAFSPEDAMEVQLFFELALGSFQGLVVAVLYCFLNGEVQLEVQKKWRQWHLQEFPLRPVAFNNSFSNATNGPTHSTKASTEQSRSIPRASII
GRPR: Gastrin-releasing peptide receptor (GRPR, Homo sapiens, UniProt P30550)
UniProt P30550, sequence (whole entry, looked up): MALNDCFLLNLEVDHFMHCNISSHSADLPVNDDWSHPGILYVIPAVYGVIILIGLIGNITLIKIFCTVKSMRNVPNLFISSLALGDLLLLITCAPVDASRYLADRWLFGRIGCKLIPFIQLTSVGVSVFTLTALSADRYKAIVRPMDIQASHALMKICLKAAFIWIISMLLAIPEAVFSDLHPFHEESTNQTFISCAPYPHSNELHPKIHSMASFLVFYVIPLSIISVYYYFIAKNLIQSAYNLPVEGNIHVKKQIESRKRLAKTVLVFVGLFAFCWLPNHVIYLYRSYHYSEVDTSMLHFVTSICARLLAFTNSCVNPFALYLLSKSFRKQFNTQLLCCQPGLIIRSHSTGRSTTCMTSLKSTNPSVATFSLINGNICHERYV
FFAR2: Free fatty acid receptor 2 (FFAR2, Homo sapiens, UniProt O15552)
UniProt O15552, sequence (whole entry, looked up): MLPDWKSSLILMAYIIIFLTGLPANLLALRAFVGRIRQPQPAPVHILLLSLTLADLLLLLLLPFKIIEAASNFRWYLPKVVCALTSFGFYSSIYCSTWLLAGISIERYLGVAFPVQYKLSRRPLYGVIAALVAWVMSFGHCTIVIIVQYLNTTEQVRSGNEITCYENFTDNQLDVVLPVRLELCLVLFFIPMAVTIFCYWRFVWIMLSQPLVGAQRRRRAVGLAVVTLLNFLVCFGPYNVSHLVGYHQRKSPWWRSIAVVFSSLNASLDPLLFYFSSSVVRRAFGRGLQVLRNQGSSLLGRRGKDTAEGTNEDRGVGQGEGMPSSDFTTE
UniProt Q03111, sequence (whole entry, looked up): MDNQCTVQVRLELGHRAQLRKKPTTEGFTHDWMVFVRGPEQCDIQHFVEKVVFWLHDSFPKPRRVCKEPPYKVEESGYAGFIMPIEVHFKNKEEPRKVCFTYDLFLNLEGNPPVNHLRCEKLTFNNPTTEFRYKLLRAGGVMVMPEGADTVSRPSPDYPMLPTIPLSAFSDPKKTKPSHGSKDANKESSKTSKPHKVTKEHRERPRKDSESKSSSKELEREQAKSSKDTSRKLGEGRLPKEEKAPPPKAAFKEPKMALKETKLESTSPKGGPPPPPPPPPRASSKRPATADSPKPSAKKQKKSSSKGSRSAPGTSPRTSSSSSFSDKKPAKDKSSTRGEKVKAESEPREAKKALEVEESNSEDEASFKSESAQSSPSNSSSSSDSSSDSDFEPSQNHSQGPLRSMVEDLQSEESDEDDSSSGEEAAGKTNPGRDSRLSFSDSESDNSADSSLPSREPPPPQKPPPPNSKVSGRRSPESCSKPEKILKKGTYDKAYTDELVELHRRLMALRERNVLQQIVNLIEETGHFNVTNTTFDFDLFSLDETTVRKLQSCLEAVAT
UniProt Q60755, sequence (whole entry, unmodified, looked up): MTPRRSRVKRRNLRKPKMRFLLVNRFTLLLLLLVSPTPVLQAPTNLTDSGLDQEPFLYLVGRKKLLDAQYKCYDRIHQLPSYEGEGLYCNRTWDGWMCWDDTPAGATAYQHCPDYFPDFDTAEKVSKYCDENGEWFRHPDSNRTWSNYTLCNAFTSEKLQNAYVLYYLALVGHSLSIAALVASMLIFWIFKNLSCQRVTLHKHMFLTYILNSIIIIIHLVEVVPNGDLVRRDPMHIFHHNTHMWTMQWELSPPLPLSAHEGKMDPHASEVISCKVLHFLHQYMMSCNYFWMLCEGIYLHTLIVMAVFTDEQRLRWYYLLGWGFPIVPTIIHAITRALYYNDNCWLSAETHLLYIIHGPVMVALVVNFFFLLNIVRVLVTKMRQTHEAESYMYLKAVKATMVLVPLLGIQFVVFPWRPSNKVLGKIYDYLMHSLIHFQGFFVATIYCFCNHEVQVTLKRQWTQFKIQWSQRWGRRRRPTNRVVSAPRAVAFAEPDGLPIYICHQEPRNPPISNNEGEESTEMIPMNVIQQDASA
UniProt Q61143, sequence (whole entry, unmodified, looked up): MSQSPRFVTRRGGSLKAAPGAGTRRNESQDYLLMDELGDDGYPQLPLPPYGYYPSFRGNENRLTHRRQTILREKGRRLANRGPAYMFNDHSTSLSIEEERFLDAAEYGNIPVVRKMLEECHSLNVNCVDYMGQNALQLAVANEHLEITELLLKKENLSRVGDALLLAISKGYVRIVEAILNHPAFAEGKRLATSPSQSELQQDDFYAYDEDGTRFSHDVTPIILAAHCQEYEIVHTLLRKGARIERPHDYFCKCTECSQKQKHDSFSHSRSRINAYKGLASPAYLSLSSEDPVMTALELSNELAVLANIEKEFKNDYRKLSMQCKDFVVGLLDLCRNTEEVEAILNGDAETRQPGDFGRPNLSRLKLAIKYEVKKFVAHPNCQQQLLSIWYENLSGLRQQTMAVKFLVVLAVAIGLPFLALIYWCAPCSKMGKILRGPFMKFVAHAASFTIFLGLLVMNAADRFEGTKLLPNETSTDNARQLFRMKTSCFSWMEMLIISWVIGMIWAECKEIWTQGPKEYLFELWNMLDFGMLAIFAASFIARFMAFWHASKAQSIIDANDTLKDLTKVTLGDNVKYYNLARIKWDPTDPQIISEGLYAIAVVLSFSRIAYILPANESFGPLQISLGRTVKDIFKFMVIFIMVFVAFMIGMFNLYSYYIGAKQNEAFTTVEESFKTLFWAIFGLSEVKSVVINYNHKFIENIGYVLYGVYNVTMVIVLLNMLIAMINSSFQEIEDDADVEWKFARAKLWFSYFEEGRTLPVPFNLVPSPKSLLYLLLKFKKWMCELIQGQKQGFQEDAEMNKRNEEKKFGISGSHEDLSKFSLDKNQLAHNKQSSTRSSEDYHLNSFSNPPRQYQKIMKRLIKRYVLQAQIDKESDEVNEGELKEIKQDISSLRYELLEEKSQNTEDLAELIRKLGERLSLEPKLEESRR
UniProt P34972, sequence (whole entry, looked up): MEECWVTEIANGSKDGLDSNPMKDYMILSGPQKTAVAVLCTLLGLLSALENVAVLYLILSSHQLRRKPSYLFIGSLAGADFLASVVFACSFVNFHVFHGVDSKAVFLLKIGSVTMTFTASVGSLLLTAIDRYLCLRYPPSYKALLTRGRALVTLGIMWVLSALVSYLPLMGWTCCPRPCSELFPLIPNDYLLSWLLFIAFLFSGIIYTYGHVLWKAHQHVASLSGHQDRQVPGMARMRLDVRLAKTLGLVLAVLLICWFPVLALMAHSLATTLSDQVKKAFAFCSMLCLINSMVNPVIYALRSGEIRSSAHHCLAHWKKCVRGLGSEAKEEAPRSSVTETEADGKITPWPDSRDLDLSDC
UniProt O95838, sequence (whole entry, looked up): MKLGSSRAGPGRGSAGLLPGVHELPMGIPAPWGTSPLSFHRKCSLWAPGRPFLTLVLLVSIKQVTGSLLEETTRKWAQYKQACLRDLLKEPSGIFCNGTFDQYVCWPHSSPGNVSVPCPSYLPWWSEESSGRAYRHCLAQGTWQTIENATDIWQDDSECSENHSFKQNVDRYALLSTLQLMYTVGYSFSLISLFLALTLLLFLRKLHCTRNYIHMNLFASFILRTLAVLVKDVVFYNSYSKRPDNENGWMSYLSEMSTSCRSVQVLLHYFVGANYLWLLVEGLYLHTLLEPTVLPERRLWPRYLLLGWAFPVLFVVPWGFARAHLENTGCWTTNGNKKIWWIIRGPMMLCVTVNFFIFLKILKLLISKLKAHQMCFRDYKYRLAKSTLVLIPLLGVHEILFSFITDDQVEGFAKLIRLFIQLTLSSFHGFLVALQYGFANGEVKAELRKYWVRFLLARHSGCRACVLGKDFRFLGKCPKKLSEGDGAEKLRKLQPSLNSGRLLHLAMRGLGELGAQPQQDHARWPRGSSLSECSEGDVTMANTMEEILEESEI
UniProt P30518, sequence (whole entry, looked up): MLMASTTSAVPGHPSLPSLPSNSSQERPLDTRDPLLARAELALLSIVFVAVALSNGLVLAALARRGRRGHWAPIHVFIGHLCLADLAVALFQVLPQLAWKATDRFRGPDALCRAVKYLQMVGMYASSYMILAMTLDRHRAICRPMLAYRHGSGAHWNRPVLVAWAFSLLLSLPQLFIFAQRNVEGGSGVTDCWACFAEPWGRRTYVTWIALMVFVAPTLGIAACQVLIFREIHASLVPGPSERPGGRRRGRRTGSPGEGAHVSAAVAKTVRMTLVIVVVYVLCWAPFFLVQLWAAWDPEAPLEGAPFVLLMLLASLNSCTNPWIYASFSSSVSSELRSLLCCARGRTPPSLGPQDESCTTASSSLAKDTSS
UniProt Q91WW4, sequence (whole entry, looked up): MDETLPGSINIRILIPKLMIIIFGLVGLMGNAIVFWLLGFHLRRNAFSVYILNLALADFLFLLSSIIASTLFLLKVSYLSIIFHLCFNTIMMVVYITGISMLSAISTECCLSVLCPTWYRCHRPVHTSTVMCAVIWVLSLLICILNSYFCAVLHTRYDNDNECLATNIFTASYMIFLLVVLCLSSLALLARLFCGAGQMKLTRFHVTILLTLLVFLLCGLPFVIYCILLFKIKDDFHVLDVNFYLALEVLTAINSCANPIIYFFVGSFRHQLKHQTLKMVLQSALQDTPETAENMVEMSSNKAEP
UniProt Q9WUP0, sequence (whole entry, unmodified, looked up): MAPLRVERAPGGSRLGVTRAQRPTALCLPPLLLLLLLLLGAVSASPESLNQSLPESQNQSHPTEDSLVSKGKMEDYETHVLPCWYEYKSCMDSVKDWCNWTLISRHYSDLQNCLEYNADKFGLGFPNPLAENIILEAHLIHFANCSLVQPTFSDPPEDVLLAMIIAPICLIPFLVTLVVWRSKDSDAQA

C[C@@]1(c2nc(-c3ccc(F)c4cn[nH]c34)no2)CCCN(C(=O)c2ccc(F)nc2)C1  EC50 (CNR2 (Homo sapiens, UniProt P34972); cAMP, agonist, luciferase): 0.0081 µM
O=C(c1cc2c(s1)CCCCC2)N1CCC(n2c(=O)[nH]c3ccccc32)CC1  EC50 (Trpc6 (Mus musculus, UniProt Q61143, V709A); channel activation, agonist, whole-cell patch clamp): 2.61 ± 0.26 µM
NCCCC[C@H](NC(=O)[C@@H]1CCCN1C(=O)[C@@H]1CSSC[C@H](N)C(=O)N[C@@H](Cc2ccc(O)cc2)C(=O)N[C@@H](Cc2ccccc2)C(=O)N[C@@H](CCC(N)=O)C(=O)N[C@@H](CC(N)=O)C(=O)N1)C(=O)NCC(N)=O  EC50 (AVPR2 (Homo sapiens, UniProt P30518); calcium signal, agonist): 1e-05 µM
CC(C)C[C@H](NC(=O)[C@H](C)NC(=O)[C@H](CCC(N)=O)NC(=O)[C@H](CC(C)C)NC(=O)[C@H](CC(C)C)NC(=O)[C@H](CCCNC(=N)N)NC(=O)[C@H](CCC(N)=O)NC(=O)[C@H](CC(C)C)NC(=O)[C@H](CCCNC(=N)N)NC(=O)[C@H](C)NC(=O)[C@H](CO)NC(=O)[C@H](CC(=O)O)NC(=O)[C@H](CCC(N)=O)NC(=O)[C@H](CC(C)C)NC(=O)[C@H](CCCNC(=N)N)NC(=O)[C@H](CO)NC(=O)[C@H](CC(C)C)NC(=O)[C@H](CCC(=O)O)NC(=O)[C@H](CO)NC(=O)[C@@H](NC(=O)[C@H](Cc1ccccc1)NC(=O)[C@@H](NC(=O)CNC(=O)[C@H](CC(=O)O)NC(=O)[C@H](CO)NC(=O)[C@@H](N)Cc1c[nH]cn1)[C@@H](C)O)[C@@H](C)O)C(=O)N[C@H](C(N)=O)C(C)C  EC50 (Sctr; cAMP production, agonist; CHO-SecR; 30 min, 37 °C, together with: 1 mM IBMX): 0.0002 ± 6e-05 µM
CCCC[C@H](NC(=O)[C@H](Cc1ccccc1)NC(=O)[C@H](Cc1c[nH]cn1)NC(=O)CCNC(=O)[C@@H](NC(=O)[C@H](C)NC(=O)[C@H](Cc1c[nH]c2ccccc12)NC(=O)[C@H](CCC(N)=O)NC(=O)[C@H](N)Cc1ccccc1)C(C)C)C(N)=O  EC50 (GRPR; inositol phosphate formation, agonist; HuTu80; 45 min, 37 °C; relative to: 1 µM GRP): 0.00036 ± 1e-05 µM
CC(=O)O  EC50 (FFAR2; agonist): 37.2 µM
CC[C@H](C)[C@H](NC(=O)CN)C(=O)N[C@H](C(=O)N[C@@H](CC(N)=O)C(=O)N[C@H](C(=O)N[C@@H](CC(C)C)C(=O)N[C@@H](CCC(N)=O)C(=O)N[C@@H](CCCCN)C(=O)N[C@@H](Cc1ccc(O)cc1)C(=O)N[C@@H](Cc1ccc(O)cc1)C(=O)N[C@H]1CSSC[C@@H]2NC(=O)[C@H](CCCCN)NC(=O)[C@H](CCCNC(=N)N)NC(=O)CNC(=O)[C@H](CCCNC(=N)N)NC(=O)[C@H]([C@@H](C)O)NC(=O)[C@H](CO)NC(=O)[C@@H]3CSSC[C@H](NC(=O)[C@H](CCCNC(=N)N)NC(=O)CNC(=O)CNC(=O)[C@H](CCCNC(=N)N)NC(=O)[C@H](C(C)C)NC(=O)[C@H](CCCNC(=N)N)NC1=O)C(=O)N[C@@H](C)C(=O)N[C@@H](C(C)C)C(=O)N[C@@H](CC(C)C)C(=O)N[C@@H](CO)C(=O)N[C@@H](CSSC[C@@H](C(=O)N[C@@H](CCCNC(=N)N)C(=O)N[C@@H](CCCNC(=N)N)C(=O)N[C@@H](CCCCN)C(=O)N[C@@H](CCCCN)C(=O)O)NC2=O)C(=O)N[C@@H](CC(C)C)C(=O)N1CCC[C@H]1C(=O)N[C@@H](CCCCN)C(=O)N[C@@H](CCC(=O)O)C(=O)N[C@@H](CCC(=O)O)C(=O)N[C@@H](CCC(N)=O)C(=O)N[C@@H]([C@@H](C)CC)C(=O)NCC(=O)N[C@@H](CCCCN)C(=O)N3)[C@@H](C)O)[C@@H](C)CC  EC50 (Mas-related G-protein coupled receptor member A2B (Mrgpra2b, Mus musculus, UniProt Q91WW4); calcium mobilisation, agonist, FLIPR; HEK293 expressing Gα15, transfected): 16.2 µM
COc1cc(-c2cnc3nc2NCCCNS(=O)(=O)c2cc(ccc2OC)N3)ccc1F  EC50 (EPHA5 (Homo sapiens, UniProt P54756); target engagement in cells, BRET): 0.5 µM
CCCC[C@H](NC(=O)[C@H](Cc1ccccc1)NC(=O)[C@H](Cc1c[nH]cn1)NC(=O)CCNC(=O)[C@@H](NC(=O)[C@H](C)NC(=O)[C@H](Cc1c[nH]c2ccccc12)NC(=O)[C@H](CC(N)=O)NC(=O)[C@@H](Cc1ccc(O)cc1)NC(=O)[C@@H](CO)NC(=O)[C@H](CO)NC(=O)[C@H](N)CO)C(C)C)C(N)=O  EC50 (GRPR; inositol phosphate generation, agonist; BALB/3T3 transfected with human GRPR; 45 min, 37 °C; relative to: 1 µM GRP): 0.00199 ± 9e-05 µM
CC[C@H](C)[C@H](NC(=O)[C@@H]1CCCN1C(=O)CNC(=O)[C@H](Cc1ccccc1)NC(=O)[C@H](CC(N)=O)NC(=O)[C@H](CC(N)=O)NC(=O)[C@H](CO)NC(=O)[C@H](CO)NC(=O)[C@H](Cc1c[nH]cn1)NC(=O)[C@@H](NC(=O)[C@H](CC(C)C)NC(=O)[C@H](Cc1ccccc1)NC(=O)[C@H](CC(N)=O)NC(=O)[C@H](C)NC(=O)[C@H](CC(C)C)NC(=O)[C@H](CCCNC(=N)N)NC(=O)[C@H](CCC(N)=O)NC(=O)[C@@H](NC(=O)[C@H](C)NC(=O)[C@@H]1CSSC[C@H](NC(=O)[C@@H](N)CCCCN)C(=O)N[C@@H](CC(N)=O)C(=O)N[C@@H]([C@@H](C)O)C(=O)N[C@@H](C)C(=O)N[C@@H]([C@@H](C)O)C(=O)N1)[C@@H](C)O)C(C)C)C(=O)N[C@@H](CC(C)C)C(=O)N1CCC[C@H]1C(=O)N1CCC[C@H]1C(=O)N[C@H](C(=O)N[C@@H](CC(N)=O)C(=O)N[C@H](C(=O)NCC(=O)N[C@@H](CO)C(=O)N[C@@H](CC(N)=O)C(=O)N[C@H](C(=O)N[C@@H](Cc1ccc(O)cc1)C(N)=O)[C@@H](C)O)C(C)C)[C@@H](C)O  EC50 (Calcr/Ramp2 (Mus musculus, UniProt Q60755+Q9WUP0, P10T); cAMP production, agonist; COS-7, transfected; 15 min, 37 °C, together with: IBMX 1 mM): 0.00776 µM
CC[C@H](C)[C@H](NC(=O)[C@H](Cc1ccccc1)NC(=O)[C@H](CC(=O)O)NC(=O)[C@H](CCCNC(=N)N)NC(=O)[C@H](C)NC(=O)[C@H](C)NC(=O)[C@H](CC(C)C)NC(=O)[C@H](CC(N)=O)NC(=O)[C@H](CC(=O)O)NC(=O)[C@H](CC(C)C)NC(=O)[C@@H](NC(=O)[C@@H](NC(=O)[C@H](CC(N)=O)NC(=O)[C@H](CCSC)NC(=O)[C@H](CCC(=O)O)NC(=O)[C@H](CC(=O)O)NC(=O)[C@H](CO)NC(=O)[C@H](Cc1ccccc1)NC(=O)[C@H](CO)NC(=O)[C@H]1CCC[C@@H]1NC(=O)[C@H](CC(=O)O)NC(=O)[C@H](C)NC(=O)[C@@H](N)Cc1c[nH]cn1)[C@@H](C)O)[C@@H](C)CC)C(=O)N[C@@H](CC(N)=O)C(=O)N[C@@H](Cc1c[nH]c2ccccc12)C(=O)N[C@@H](CC(C)C)C(=O)N[C@H](C(=O)N[C@@H](CCC(N)=O)C(=O)N[C@H](C(=O)N[C@@H](CCCCN)C(=O)N[C@H](C(=O)N[C@H](C(=O)N[C@@H](CC(=O)O)C(N)=O)[C@@H](C)O)[C@@H](C)CC)[C@@H](C)O)[C@@H](C)CC  EC50 (GLP2R (Homo sapiens, UniProt O95838); agonist): 0.0018 µM
CC(C)C[C@H](NC(=O)CNC(=O)[C@H](CCC(N)=O)NC(=O)[C@H](CC(C)C)NC(=O)[C@H](C)NC(=O)[C@H](CCCNC(=N)N)NC(=O)[C@H](CCC(N)=O)NC(=O)[C@H](CC(C)C)NC(=O)[C@H](CCCNC(=N)N)NC(=O)[C@H](C)NC(=O)[C@H](CO)NC(=O)[C@H](CC(=O)O)NC(=O)[C@H](CCC(N)=O)NC(=O)[C@H](CC(C)C)NC(=O)[C@H](CCCNC(=N)N)NC(=O)[C@H](CO)NC(=O)[C@H](CC(C)C)NC(=O)[C@H](CCC(=O)O)NC(=O)[C@H](CO)NC(=O)[C@@H](NC(=O)[C@H](Cc1ccccc1)NC(=O)[C@@H](NC(=O)CNC(=O)[C@H](CC(=O)O)NC(=O)[C@H](CO)NC(=O)[C@@H](N)Cc1c[nH]cn1)[C@@H](C)O)[C@@H](C)O)C(=O)N[C@H](C(N)=O)C(C)C  EC50 (Sctr; cAMP production, agonist; CHO-SecR; 30 min, 37 °C, together with: 1 mM IBMX): 0.0117 ± 0.0021 µM
CC(C)C[C@@H]1NC(=O)[C@H](Cc2c[nH]cn2)NC(=O)[C@@H](C)NC(=O)[C@H](C(C)C)NC(=O)[C@H](C)NC(=O)[C@H](Cc2c[nH]c3ccccc23)NC(=O)[C@H](CCC(N)=O)NC(=O)[C@H](N)CSSC[C@@H](C(N)=O)NC1=O  EC50 (GRPR; inositol phosphate generation, agonist; BALB/3T3 transfected with human GRPR; 45 min, 37 °C; relative to: 1 µM GRP): 0.194 ± 0.011 µM
CSCC[C@H](NC(=O)[C@H](CO)NC(=O)[C@H](Cc1ccc(O)cc1)NC(=O)[C@@H](N)CO)C(=O)N[C@@H](CCC(=O)O)C(=O)N[C@@H](Cc1c[nH]cn1)C(=O)N[C@@H](Cc1ccccc1)C(=O)N[C@@H](CCCNC(=N)N)C(=O)N[C@@H](Cc1c[nH]c2ccccc12)C(=O)O  EC50 (GPR139 (Homo sapiens, UniProt Q6DWJ6); calcium signal, agonist, fluorescence): 0.596 µM
CC#CC(=O)O  EC50 (FFAR2; agonist): 2090 µM
CC(C)C[C@H](NC(=O)[C@H](CCCNC(=N)N)NC(=O)[C@H](C)NC(=O)[C@H](CO)NC(=O)[C@H](CC(=O)O)NC(=O)[C@H](CCC(N)=O)NC(=O)[C@H](CC(C)C)NC(=O)[C@H](CCCNC(=N)N)NC(=O)[C@H](CO)NC(=O)[C@H](CC(C)C)NC(=O)[C@H](CCC(=O)O)NC(=O)[C@H](CO)NC(=O)[C@@H](NC(=O)[C@H](Cc1ccccc1)NC(=O)[C@@H](NC(=O)CNC(=O)[C@H](CC(=O)O)NC(=O)[C@H](CO)NC(=O)[C@@H](N)Cc1c[nH]cn1)[C@@H](C)O)[C@@H](C)O)C(=O)N[C@@H](CCC(N)=O)C(=O)N[C@@H](CCCNC(=N)N)C(=O)N[C@@H](CC(C)C)C(=O)N[C@@H](CC(C)C)C(=O)N[C@@H](CCC(N)=O)C(=O)NCC(=O)N[C@@H](C)C(=O)N[C@H](C(N)=O)C(C)C  EC50 (Sctr; cAMP production, agonist; CHO-SecR; 30 min, 37 °C, together with: 1 mM IBMX): 0.0013 ± 0.0002 µM
Nc1ncnc2c1ncn2[C@@H]1O[C@H](CO)[C@@H](O[C@H]2O[C@H](CO)[C@@H](OP(=O)(O)O)[C@H](OP(=O)(O)O)[C@H]2O)[C@H]1O  EC50 (Itpr1 (Rattus norvegicus, UniProt P29994); calcium signal, agonist): 0.16 µM
CC(C)C[C@H](NC(=O)CNC(=O)[C@H](CCC(N)=O)NC(=O)[C@H](CC(C)C)NC(=O)[C@H](CC(C)C)NC(=O)[C@H](CCCNC(=N)N)NC(=O)[C@H](CCC(N)=O)NC(=O)[C@H](CC(C)C)NC(=O)[C@H](C)NC(=O)[C@H](C)NC(=O)[C@H](CO)NC(=O)[C@H](CC(=O)O)NC(=O)[C@H](CCC(N)=O)NC(=O)[C@H](CC(C)C)NC(=O)[C@H](CCCNC(=N)N)NC(=O)[C@H](CO)NC(=O)[C@H](CC(C)C)NC(=O)[C@H](CCC(=O)O)NC(=O)[C@H](CO)NC(=O)[C@@H](NC(=O)[C@H](Cc1ccccc1)NC(=O)[C@@H](NC(=O)CNC(=O)[C@H](CC(=O)O)NC(=O)[C@H](CO)NC(=O)[C@@H](N)Cc1c[nH]cn1)[C@@H](C)O)[C@@H](C)O)C(=O)N[C@H](C(N)=O)C(C)C  EC50 (Sctr; cAMP production, agonist; CHO-SecR; 30 min, 37 °C, together with: 1 mM IBMX): 0.0004 ± 0.0001 µM
O=C(NC1CCC1)c1ccc2nc(-c3cccc(NS(=O)(=O)NCCc4c[nH]cn4)c3)cn2c1  EC50 (Protein ENL, YEATS domain (MLLT1, Homo sapiens, UniProt Q03111); cell-based): 0.425 µM
